Measurements gathered from unrelated publications.
Parts stem from different laboratories: compare values within a part only. Substitutions count along the parent as printed.

Series 1
Target: CCND1, cyclin fold, Cln2 fusion (human)
Method: yeast growth competition, sequencing
Matrix: yeast
Notes: strong parent motif
Reference: not given
Direction: higher = stronger binding
Starting sequence: PKN2 docking peptide (human); VSAVQKLDFSDTM; partner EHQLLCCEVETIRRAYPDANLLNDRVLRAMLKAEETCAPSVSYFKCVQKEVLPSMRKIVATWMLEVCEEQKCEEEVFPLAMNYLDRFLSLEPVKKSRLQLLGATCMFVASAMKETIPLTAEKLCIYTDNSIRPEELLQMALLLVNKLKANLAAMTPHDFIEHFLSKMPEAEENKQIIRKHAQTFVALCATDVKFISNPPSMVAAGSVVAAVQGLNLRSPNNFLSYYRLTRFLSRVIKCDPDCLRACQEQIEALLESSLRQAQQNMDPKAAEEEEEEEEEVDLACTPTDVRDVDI
Variant | normalised enrichment score
S10L | 1.12
K6R | 2.19
L7C | 0.382
F9S | 0.426
S2G | 1.44
L7S | -0.178
S10P | 1.19
F9A | 0.376
L7Q | -0.266
T12D | 2.34
T12L | 2.63
F9W | 0.113
M13F | 1.74
F9E | 0.345
S2C | 1.76
D11F | 1.69
K6N | 1.19
M13Q | 2.62
M13K | 1.51
L7I | 1.19
D8A | 0.944
V1R | 2.67
S10Q | 0.66
V1D | 0.95
T12S | 2.56

Series 2
Target: Ras GTPase-activating protein-binding protein 1, C-terminal RGG region (G3BP1, Homo sapiens, UniProt Q13283)
UniProt Q13283, sequence (whole entry, looked up): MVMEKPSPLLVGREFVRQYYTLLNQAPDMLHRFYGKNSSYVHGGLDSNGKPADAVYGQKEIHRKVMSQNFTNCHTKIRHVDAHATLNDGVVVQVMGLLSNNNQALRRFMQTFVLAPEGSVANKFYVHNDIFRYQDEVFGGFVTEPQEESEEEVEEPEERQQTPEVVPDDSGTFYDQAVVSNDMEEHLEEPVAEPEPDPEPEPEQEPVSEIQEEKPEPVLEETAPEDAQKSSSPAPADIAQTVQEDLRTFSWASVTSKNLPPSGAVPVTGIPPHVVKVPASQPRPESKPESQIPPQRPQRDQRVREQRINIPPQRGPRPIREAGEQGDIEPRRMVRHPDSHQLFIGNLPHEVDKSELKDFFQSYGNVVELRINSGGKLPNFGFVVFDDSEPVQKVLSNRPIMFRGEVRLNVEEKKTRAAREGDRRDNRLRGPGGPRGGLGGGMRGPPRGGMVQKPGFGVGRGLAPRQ
Method: RNA Bind-n-Seq
Molecule type: RNA
Matrix: in vitro
Concentration: 1 µM
Notes: whole 134-nt RNA, ends assumed
With: 150 mM KCl
Reference: input library
Direction: higher = stronger binding
Sequence | log2 enrichment
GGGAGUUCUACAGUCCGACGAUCGUCCUGUGCUACACAUCGUAUGUACCGAAUCGGGUUUUUGGGGUUUUUGGGUUUUUGGAAAGUAUUAUGUUACGCCGUUCGGAUCUGCACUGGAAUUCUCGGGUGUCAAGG | -0.626
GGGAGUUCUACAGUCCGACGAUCCACAGACAACACGCACCCACACAGACACAGAGGGAAGGGGUUGGGAUGGGGACAGGGUGCACAGCAGGGCGGGGUACGACCCCAGCCCCUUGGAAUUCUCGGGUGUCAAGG | -0.441
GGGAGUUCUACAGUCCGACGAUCCCUCAAGUCCUGUGCUACACAUCGUAUGUACCGAAUCGGGCGGGCGGGGCGGAAAGUAUUAUGUUACGCCGUUCGGAUCUGCACUUCCAGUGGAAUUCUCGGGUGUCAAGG | 0.614
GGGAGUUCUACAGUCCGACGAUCCCUGUGCUACACAUCGUAUGUACCGAAUCGGGGCCCCCCGGGCCCCCCGGGCCCCCCGGGGAAAGUAUUAUGUUACGCCGUUCGGAUCUGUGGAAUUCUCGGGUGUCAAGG | -2.01
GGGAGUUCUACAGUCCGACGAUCUGUUUAAUAAACGUGAAGAUGUCUCGCAGUCCUGAUGCGAAGGAAGACCCUGUGGAGUGCCCUCUUUGCAUGGAGCCCUUGGAGAUAGAUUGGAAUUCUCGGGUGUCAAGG | -1.61
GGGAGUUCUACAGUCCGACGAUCCCUCAAGUCCUGUGCUACACAUCGUAUGUACCGAAUCGGUUUUUGGAGGUGGAAAGUAUUAUGUUACGCCGUUCGGAUCUGCACUUCCAGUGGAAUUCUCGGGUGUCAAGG | -0.654
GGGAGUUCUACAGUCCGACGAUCGCAGGAAGUAAAAACAAACGGAAAUGCUUCGGAUAGUGGCAGGGGUGGGGGUUGCUAAGGAAAGGGUGGGAUGGGAGUGGGUAAAGAGUUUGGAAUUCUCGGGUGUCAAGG | 1.62
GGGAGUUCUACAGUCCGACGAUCAGUCCUGUGCUACACAUCGUAUGUACCGAAUCGGGGAAAGGGGAGGGGAAAAAGGGGAAAGUAUUAUGUUACGCCGUUCGGAUCUGCACUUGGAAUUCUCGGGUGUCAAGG | 1.86
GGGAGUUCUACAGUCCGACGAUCCUCAAGUCCUGUGCUACACAUCGUAUGUACCGAAUCGGGUGGGAGGGUUUGGGAAAGUAUUAUGUUACGCCGUUCGGAUCUGCACUUCCAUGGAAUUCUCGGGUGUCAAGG | 2.09
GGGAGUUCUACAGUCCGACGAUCCACAGACAACACGCACCCACACAGACACAGAGGGAAGGGGUUGGGAUGGGGACAGGGUGCACAGCAGGGCGGGGUAAAACCCCAGCCCCUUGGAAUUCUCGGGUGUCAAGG | -0.139

Series 3
Target: ABI1, truncated, D143A, DHFR fusion (Arabidopsis thaliana)
Method: DHFR PCA, deep sequencing
Matrix: yeast
Notes: methotrexate growth selection, single substitutions
With: (+)-ABA 0 µM
Reference: wild-type fitted maximum
Direction: higher = stronger binding
Starting sequence: PYL1, truncated, DHFR fusion (Arabidopsis thaliana); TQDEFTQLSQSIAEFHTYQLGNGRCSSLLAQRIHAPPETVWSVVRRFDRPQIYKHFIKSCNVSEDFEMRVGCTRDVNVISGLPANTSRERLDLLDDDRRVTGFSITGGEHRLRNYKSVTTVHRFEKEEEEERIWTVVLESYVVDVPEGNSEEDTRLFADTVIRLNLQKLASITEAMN
Variant | relative binding score [%]
G21L | 6.12
L93Y | 4.72
A13N | 23.3
D92I | 4.85
G102W | 6.97
F5L | 40.4
Q7C | 19.8
R98M | 4.72
T101G | -3.5
F103C | 2.54
R163H | -2.21
V44R | 2.53
Q10V | 1.63

Series 4
Target: Interferon regulatory factor 7, full length, phosphomimetic (IRF7, Homo sapiens, UniProt Q92985, residues 1-503, S471D/S472D/S475D/S476D/S477D/S483D/S484D/S487D)
Method: protein-binding microarray
Molecule type: double-stranded DNA, one strand shown
Matrix: in vitro
Concentration: 2200 nM top
Notes: 60-bp whole probe
With: salmon DNA 0.4 mg/ml
Reference: random background probes
Direction: higher = stronger binding
Shared flanks, not repeated: GCCTAGCAC … GTCTTGATTCGCTTGACGCTGCTG
Residues (chain): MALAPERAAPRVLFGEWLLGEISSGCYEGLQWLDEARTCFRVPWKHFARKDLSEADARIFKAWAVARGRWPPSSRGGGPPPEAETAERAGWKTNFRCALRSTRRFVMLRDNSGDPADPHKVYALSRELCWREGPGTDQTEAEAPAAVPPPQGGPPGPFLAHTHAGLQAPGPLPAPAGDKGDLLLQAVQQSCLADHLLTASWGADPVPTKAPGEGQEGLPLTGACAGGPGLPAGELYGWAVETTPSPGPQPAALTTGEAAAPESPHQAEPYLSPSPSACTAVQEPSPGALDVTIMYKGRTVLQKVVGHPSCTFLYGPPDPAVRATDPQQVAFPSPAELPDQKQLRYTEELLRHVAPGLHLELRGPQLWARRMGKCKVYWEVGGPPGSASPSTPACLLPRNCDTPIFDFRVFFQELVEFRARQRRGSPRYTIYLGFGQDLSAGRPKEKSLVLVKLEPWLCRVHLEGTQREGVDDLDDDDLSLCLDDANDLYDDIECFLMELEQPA
Sequence | fitted relative affinity
ATAGGTTTCCTTCTCCTTTAGTGCTAG | 2.59 z-score
GACGGACGGCTTTTCCTGACGTGCTAG | -0.295 z-score
TTAGTTTTCCTACTGCTTTAGTGCTAG | 1.83 z-score
TTCTCTCCCATTCTGAATTCGTGCTAG | 2.31 z-score
TTAGGACAGGGGTTTCGGTTAGTGCTA | 2.68 z-score
TTCGATCTCAGTTTCGATTAGTGCTAG | 5.92 z-score
TTAGGTATCGGATTTCGGTTAGTGCTA | 2.45 z-score
TCAGATGTCAAACTCACACTGTGCTAG | 0.436 z-score
GACGGTTTCCTTTTCCTGTCGTGCTAG | 6.56 z-score
TCACCTTGAGGTTTTCTCACTGTGCTA | 0.528 z-score
GACGGTCTCGGTTTCGGGATGTGCTAG | 4.77 z-score
GACGTTATCCTTATCCTGACGTGCTAG | 1.44 z-score
TTAGGTATCCTACTCCTTTAGTGCTAG | 0.99 z-score
CTCTGCTTCTGTATGGGCATGTGCTAG | 0.848 z-score
TGTAGAGTAGCTTTCTGAGGGTGCTAG | -0.119 z-score
TCAGTTCCTTATTTAAGACTGTGCTAG | 1.68 z-score
TTAGATATCGGGTATCGATTTGTGCTA | 0.899 z-score
ACTGTGTTTTGGATGTCAGAGTGCTAG | 0.965 z-score
GACGATTTCGGGTTCCGAGACGTGCTA | 5.14 z-score
TCAGATTTCTTCCCTGTGACTGTGCTA | 1.37 z-score
AACCATTTTGGTTTTCTCTAGTGCTAG | 1.99 z-score
CACGAACTGGGGTTTCGAGACGTGCTA | 0.886 z-score
GACGATTACAGTTTCGAGACGTGCTAG | 3.21 z-score
GACGAACTGGGGACTCGAGACGTGCTA | -0.0909 z-score
TCATTTGTTTCACTTCCTACTGTGCTA | 4.41 z-score

For quick reference, copied from above (series 4):
Sequence | fitted relative affinity
TTAGGTATCGGATTTCGGTTAGTGCTA | 2.45 z-score
TCAGATTTCTTCCCTGTGACTGTGCTA | 1.37 z-score
GACGTTATCCTTATCCTGACGTGCTAG | 1.44 z-score
GACGATTACAGTTTCGAGACGTGCTAG | 3.21 z-score
CACGAACTGGGGTTTCGAGACGTGCTA | 0.886 z-score
GACGATTTCGGGTTCCGAGACGTGCTA | 5.14 z-score
AACCATTTTGGTTTTCTCTAGTGCTAG | 1.99 z-score
ATAGGTTTCCTTCTCCTTTAGTGCTAG | 2.59 z-score
